Measurements pooled from the literature.
Parts stem from different laboratories: compare values within a part only. Positions count from the first letter of the parent shown.

Block 1
Target: RNA binding protein fox-1 homolog 2, RRM domain, GST-SBP tag (RBFOX2, Homo sapiens, UniProt O43251-10, residues 100-194)
Technique: RNA Bind-n-Seq
Molecule type: RNA
Medium: in vitro
Tested at: 365 nM
Setting: natural RNA segment, single round, ends assumed
Reference: no-protein control
Reading: higher = stronger binding
Shared flanks, not repeated: GGGAGUUCUACAGUCCGACGAUC … UGGAAUUCUCGGGUGCCAA
Residues (chain): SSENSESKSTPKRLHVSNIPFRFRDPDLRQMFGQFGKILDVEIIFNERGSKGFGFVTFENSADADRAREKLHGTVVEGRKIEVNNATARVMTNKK
Strand | RBNS enrichment (R)
UUGUUUUUUUAGUUUGUUAUCCCCUUACUGAGCGGCCUCUACUAGGUGGCUGUGAUUAAAUGUCCCAAGCAAGGAUAGGGAAGGGGAAUGGUUGAGCCUCUGGAGAUCAU | 1.35
CUUCAAAAUAUUGAACUGCAGGUCCCAAGAUGCAUUUCAGGAUUUAAGACAGGUGCACUAAUGAUAACCAUUCCUUCACCAAGUAGCAACAUUCUUGCCAGAGUUCUUGG | 1.84
CUAGAACCUCUCCUUGCCACAGAGAUGGAAAGGCAUCAGUGCUACACCUGGACUUGGCUUCCUGAGAAAGAUUGUUUUUUAACCUUUGGCUUUCUUCAUUCAGUGUGCCA | 0.353
AUUUUUAUUUAUUAAAUAUUUGGGGUUUUGGUUUUAAAGCCAGAAUUACGGCUAGCACCUAGCAUUUCAGCAGAGGGACCAUUUUAGACCAAAAUGUACUGUUAAUGGGU | 0.713
AAGUGCCUGACAUUGAUUUGUGUUGAUUUCUAAGUCCAUGUAAUAAAUGAUACAUGUUUUCUAUGAUUAUAUUCUUGGGGGUUUUUGUUGUGGUGUUUGUCUUUUUGUUU | 2.03
UUUUUUUAAUCCUCCCAGUACUCCAGAGACAGAGACAGACCAGUCUCUGAGUUCAAGGCCAGCCUGAUCUUCAUAAUGAGCUCCAGACAACCAGGGCUAUCUAAGAAGCC | 0.456
UUUAGGAAUAAAUGUCAGAUUUUAAAAGUCUUCUAUUUCCCAAUGAUCUCUGAAGUUUAGUAUUUUUGCACUAUGACAAUUGCUAAGACUGGGAUUUUAAGCUAGGAUAU | 0.413
AAUGAACUUUGAUAAAAUAGAAAUAAUCUACAUUGGCCUUUGUGAAAUCUGGGGAAGAGCUUUAGGAUUCUAGUAGAUGGAUACUGAAUACUCAGGCCCACUUAAAUUAU | 0.561
ACCGGGUAUACCCUUUUCUUUAGCACUGCUAUCCUUUUUGUCUUCAGCACAAAUAAGAUGUUCAAGUGAGCCAGAAGCAAGAAGAGCCAUUUUAGUCUUCAUAGCUAUUG | 0.287
CAGCUUCAUCCCAGUGACGAUGCUGGACGUACAGAUGGUGAUGGCAAAGGUGUAGAACACAUUUUUUCAAAGACUAAAUCUAAAACCCAGAGUAAACAUCCGAUGCUCAG | 0.507
CCACCUCGCCCUGUGUUUCCAGGCCUGCACGUCUGGUCCUUCAGCUGCACAUGGAACUGCAGGGCAGGCUGGCGGGGGGCCUUCAGAUCUCAGAUGAGACUGCACCCCUU | 0.286
CGGAUGCUGCUCUUUUCUUGCUUACCAACCAACUCCAUUUGCUUGUGAUGGCCCCAUUUUUACAGUUUUCCACAUGCUGGGGAGCCUAGGCCAAGCUGGUCACAAGUGGU | 0.645

Block 2
Target: Centromere-binding protein 1, full length, N-terminal tag (CBF1, Saccharomyces cerevisiae, UniProt P17106, residues 1-351)
Chain of UniProt P17106 (whole entry, looked up): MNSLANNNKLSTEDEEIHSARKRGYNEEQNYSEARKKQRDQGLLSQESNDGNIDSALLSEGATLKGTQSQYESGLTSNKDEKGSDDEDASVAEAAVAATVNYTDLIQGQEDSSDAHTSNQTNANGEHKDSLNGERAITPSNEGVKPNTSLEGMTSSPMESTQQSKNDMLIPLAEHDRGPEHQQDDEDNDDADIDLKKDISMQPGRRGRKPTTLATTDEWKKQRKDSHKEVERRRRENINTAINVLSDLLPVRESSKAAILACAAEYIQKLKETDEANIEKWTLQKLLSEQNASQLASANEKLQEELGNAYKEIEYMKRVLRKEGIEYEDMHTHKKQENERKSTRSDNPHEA
Technique: protein-binding microarray
Molecule type: double-stranded DNA, one strand shown
Medium: in vitro
Tested at: 0.8 µM
Setting: whole 60-bp probe, no competitor
Reading: higher = stronger binding
Shared flanks, not repeated: … GTCTTGATTCGCTTGACGCTGCTG
Strand | fluorescence intensity [a.u.]
TGTACGAAGCTATGTTATGTGACTATAGTAGTTAGG | 546
GAAGGATAGTGGCATCACGAGAAGCTGTTGTTCTAG | 648
GAATTGATAGTACACGTGATTGTATACCCAATGTAG | 11500
GAACACTATCCTGTACATGTGAAATGTATAAAATAG | 841
GAAGCTTAAATAGGTGACACAAAATGGAGGGCATAG | 539
CTATATAGCACCGACCATGTGGGCAAATTCGTATTC | 651
GAACTAAACGAAAATCCCGTGAAAAAAATTTATTAG | 687
GAATTGCCATACCCGCACACGGGGTTCTTTGAGTAG | 597
TGTACGAAGCTATACGTGACCAATATAGTAGTTAGG | 920
GAAATATAAGATTATCAGATGACTATTTTCTGCTAG | 807

Block 3
Molecule: PhoQ, residues 284 288 289 292 302 303 SSTLLI
Technique: Sort-seq
Measured: YFP reporter
Medium: E. coli
Setting: PhoQ-PhoP variant library
With: 10 µM Mg2+
Reference: high Mg2+ state
Reading: higher = stronger signaling
target | fold induction
PhoP, residues 12 14 15 18 19 TQCLL (Escherichia coli, UniProt P23836) | 12
PhoP, residues 12 14 15 18 19 ICWRQ (Escherichia coli, UniProt P23836) | 12.2
PhoP, residues 12 14 15 18 19 VHTVL (Escherichia coli, UniProt P23836) | 8.3

Block 4
Target: CCND1, cyclin fold, Cln2 fusion (human)
Technique: yeast growth competition, sequencing
Medium: yeast
Setting: weak parent motif
Reference: not given
Reading: higher = stronger binding
Parent: RB1 docking peptide (human); PKPLKKLRFDIEG
Variant | normalised enrichment score
RKPLKKLRFDIEG [P1R] | -0.179
PKPLKKLRSDIEG [F9S] | -0.298
PKPLKKLKFDIEG [R8K] | 0.29
PKPTKKLRFDIEG [L4T] | -0.417
PKPLKELRFDIEG [K6E] | 0.174
PKPLKKLRFDIEM [G13M] | -0.0967
PKPLKKLRFDREG [I11R] | -0.875
PKRLKKLRFDIEG [P3R] | 0.108
PKPLKKLRFDIEW [G13W] | -0.322
WKPLKKLRFDIEG [P1W] | 0.175

Some of these lines once more (block 2):
Strand | fluorescence intensity [a.u.]
TGTACGAAGCTATGTTATGTGACTATAGTAGTTAGG | 546
GAATTGCCATACCCGCACACGGGGTTCTTTGAGTAG | 597
